Results gathered from unrelated publications.
Protocols differ between the studies behind these lines. ± marks the error that the study gave.

By UniProt entry, the sequences of proteins in these tests, tags left out. Residues count along the entry.
UniProt P26038, whole entry, looked up: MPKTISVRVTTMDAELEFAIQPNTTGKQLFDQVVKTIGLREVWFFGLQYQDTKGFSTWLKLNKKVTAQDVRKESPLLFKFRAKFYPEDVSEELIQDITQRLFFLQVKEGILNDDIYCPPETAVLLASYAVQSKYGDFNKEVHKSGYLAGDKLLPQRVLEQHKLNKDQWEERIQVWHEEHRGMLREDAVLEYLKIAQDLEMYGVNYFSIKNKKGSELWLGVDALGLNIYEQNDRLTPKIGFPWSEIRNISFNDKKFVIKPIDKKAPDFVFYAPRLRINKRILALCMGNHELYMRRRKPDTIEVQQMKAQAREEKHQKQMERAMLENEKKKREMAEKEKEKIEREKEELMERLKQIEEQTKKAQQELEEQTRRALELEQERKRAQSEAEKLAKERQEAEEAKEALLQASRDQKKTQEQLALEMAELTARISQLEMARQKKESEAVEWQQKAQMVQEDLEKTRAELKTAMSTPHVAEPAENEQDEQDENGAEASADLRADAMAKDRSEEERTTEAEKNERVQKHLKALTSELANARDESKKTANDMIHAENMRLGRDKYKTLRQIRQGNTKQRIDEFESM
UniProt P05067, 672-713 limits assumed: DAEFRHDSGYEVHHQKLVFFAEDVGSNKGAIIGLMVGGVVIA
UniProt P05067, whole entry, looked up: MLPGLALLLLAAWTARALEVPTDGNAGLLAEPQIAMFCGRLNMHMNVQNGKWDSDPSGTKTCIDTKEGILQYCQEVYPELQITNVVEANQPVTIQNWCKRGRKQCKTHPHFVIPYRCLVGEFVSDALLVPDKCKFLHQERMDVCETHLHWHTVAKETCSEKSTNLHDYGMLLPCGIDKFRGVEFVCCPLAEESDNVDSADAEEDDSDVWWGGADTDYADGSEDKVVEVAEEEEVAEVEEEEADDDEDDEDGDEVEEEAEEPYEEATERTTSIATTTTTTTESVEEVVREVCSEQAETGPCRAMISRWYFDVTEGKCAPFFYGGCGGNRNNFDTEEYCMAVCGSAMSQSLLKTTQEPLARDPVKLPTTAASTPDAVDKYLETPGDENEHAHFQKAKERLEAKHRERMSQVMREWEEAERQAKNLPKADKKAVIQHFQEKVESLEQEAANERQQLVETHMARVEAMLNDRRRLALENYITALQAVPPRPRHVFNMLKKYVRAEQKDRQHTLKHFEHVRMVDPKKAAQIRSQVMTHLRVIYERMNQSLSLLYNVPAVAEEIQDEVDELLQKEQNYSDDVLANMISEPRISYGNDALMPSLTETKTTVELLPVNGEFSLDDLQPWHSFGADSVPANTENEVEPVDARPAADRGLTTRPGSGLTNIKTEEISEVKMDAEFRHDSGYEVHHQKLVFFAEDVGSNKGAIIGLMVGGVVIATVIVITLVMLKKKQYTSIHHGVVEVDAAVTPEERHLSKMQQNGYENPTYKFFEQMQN
UniProt P04629, 33-796 limits assumed: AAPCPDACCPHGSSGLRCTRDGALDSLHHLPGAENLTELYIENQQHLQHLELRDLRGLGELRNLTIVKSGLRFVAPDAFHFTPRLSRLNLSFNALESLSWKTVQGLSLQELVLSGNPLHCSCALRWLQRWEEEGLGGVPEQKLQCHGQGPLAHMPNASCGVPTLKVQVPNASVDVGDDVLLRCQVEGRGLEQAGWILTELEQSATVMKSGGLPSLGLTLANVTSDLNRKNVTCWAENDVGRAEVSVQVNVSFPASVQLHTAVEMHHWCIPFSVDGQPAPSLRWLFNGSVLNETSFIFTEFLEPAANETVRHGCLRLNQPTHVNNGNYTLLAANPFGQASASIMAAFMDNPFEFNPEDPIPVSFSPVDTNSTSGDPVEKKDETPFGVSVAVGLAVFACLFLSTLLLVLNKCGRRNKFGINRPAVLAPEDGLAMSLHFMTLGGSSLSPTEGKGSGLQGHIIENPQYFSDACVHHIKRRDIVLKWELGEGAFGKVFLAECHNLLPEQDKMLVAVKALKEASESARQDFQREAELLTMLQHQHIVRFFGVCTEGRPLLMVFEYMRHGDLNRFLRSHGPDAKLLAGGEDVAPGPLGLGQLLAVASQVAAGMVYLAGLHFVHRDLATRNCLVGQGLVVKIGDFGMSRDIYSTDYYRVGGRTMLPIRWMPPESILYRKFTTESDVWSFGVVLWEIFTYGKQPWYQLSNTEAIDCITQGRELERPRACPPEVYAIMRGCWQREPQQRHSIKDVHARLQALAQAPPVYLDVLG
UniProt P45983, 1-384 isoform 3: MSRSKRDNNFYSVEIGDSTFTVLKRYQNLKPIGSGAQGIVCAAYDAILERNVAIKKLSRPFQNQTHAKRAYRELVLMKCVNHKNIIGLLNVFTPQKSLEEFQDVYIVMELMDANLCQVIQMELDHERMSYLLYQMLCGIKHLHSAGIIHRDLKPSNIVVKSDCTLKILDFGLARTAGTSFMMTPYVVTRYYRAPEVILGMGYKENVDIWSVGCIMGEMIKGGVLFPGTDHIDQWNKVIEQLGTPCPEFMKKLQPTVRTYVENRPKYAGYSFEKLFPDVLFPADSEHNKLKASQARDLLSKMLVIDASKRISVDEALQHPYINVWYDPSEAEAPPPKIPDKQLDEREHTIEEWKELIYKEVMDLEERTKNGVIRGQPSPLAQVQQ
UniProt O60488, whole entry, looked up: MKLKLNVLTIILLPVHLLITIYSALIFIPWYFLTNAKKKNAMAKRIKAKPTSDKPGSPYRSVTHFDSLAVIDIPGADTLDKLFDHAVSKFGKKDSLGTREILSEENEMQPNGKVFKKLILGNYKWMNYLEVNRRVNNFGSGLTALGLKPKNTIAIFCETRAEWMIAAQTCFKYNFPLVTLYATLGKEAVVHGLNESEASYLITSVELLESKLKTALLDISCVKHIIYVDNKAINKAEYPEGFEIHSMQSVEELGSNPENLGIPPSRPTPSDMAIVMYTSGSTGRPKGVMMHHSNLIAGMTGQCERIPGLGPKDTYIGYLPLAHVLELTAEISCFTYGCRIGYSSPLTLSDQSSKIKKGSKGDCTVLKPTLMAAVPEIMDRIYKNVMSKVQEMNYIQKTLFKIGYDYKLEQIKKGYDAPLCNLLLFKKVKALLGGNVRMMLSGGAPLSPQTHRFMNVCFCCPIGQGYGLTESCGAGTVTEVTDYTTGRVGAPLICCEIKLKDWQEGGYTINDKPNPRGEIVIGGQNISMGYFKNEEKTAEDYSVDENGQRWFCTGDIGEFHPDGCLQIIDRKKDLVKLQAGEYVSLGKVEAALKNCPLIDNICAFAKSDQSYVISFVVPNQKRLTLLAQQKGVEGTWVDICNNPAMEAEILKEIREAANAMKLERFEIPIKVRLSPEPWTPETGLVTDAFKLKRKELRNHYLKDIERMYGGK
UniProt O00748, 27-559 limits assumed: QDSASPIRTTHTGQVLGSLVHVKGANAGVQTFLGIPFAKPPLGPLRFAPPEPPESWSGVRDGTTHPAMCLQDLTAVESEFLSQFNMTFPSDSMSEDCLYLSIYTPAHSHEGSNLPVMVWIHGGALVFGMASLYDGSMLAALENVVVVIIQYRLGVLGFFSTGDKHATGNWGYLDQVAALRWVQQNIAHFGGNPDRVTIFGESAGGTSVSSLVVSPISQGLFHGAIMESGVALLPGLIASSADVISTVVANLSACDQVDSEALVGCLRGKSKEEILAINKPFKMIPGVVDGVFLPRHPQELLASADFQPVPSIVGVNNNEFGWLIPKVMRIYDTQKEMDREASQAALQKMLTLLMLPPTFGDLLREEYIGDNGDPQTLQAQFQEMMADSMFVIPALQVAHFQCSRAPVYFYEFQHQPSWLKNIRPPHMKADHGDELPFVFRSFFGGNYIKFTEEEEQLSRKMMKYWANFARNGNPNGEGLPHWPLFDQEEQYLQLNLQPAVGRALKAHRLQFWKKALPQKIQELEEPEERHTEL
UniProt P11086, whole entry: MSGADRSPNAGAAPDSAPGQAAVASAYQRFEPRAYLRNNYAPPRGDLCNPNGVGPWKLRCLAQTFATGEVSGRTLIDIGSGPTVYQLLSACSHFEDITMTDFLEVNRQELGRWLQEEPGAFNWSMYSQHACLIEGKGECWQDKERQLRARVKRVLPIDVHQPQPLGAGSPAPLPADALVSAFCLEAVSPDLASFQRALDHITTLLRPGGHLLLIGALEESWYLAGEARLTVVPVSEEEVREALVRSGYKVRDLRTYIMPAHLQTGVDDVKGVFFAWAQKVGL
UniProt P41597, whole entry: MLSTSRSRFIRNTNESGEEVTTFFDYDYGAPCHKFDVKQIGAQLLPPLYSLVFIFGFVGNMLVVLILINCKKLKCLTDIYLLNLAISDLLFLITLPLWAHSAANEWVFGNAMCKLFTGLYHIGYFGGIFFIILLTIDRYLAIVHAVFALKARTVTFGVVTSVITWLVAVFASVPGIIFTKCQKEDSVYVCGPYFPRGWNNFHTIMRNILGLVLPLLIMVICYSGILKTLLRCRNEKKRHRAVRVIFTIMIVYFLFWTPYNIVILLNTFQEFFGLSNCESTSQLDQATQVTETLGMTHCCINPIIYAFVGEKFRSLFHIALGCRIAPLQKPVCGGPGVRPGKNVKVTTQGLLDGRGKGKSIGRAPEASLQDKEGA
UniProt P29466, whole entry, looked up: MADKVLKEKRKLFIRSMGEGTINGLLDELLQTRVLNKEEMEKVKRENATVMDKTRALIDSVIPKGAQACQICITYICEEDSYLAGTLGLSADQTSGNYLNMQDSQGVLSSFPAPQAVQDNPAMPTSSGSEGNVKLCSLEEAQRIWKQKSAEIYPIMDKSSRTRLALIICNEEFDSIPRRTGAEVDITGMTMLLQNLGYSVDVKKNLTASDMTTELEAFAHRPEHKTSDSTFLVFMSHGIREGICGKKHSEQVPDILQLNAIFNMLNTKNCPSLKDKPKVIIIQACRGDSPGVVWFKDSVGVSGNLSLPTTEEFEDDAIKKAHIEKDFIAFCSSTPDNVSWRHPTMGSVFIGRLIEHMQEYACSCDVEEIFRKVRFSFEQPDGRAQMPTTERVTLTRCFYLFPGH
UniProt O00311, whole entry: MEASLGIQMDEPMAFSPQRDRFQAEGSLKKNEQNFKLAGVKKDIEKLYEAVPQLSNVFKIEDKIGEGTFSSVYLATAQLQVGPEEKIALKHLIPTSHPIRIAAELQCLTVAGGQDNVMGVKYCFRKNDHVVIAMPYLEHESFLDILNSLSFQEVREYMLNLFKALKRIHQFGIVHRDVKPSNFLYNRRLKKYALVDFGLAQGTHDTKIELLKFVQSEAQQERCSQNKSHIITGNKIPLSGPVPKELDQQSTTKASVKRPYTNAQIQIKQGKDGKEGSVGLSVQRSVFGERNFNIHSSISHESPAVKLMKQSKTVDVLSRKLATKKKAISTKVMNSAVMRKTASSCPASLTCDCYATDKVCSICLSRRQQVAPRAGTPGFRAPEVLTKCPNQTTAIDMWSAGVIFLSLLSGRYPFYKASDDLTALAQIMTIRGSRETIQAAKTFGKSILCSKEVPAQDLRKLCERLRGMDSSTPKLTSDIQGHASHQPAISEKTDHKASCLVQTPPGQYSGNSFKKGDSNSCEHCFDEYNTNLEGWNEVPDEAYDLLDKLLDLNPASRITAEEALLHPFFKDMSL
UniProt P25090, whole entry: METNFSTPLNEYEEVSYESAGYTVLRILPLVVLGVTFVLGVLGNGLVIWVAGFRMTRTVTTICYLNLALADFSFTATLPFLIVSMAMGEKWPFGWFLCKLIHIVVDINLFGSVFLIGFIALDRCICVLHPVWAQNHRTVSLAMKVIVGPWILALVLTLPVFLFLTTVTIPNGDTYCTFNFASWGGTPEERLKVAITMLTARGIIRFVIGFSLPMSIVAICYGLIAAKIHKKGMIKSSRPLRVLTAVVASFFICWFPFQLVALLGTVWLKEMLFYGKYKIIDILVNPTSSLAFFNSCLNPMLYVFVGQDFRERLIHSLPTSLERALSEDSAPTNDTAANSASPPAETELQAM
UniProt P68400, whole entry: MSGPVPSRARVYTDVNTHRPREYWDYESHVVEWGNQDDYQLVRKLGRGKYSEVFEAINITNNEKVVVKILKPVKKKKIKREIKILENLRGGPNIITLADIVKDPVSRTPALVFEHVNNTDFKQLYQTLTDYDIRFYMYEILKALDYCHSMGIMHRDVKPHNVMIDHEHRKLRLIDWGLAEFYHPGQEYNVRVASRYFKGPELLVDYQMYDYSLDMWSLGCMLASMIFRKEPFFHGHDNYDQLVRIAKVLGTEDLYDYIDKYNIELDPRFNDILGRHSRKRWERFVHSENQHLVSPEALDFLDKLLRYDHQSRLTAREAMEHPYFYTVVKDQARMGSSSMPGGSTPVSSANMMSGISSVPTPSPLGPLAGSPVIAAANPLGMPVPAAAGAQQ

Compound | target or system | assay | system | conditions | scale | quantity | result
CN1CC[C@H](c2c(O)cc(O)c3c(=O)cc(-c4ccccc4F)oc23)[C@H](O)C1 | GSK3A (Homo sapiens, UniProt P49840) | – | – | ATP at Km | – | IC50 | > 1 µM
O=C(Nc1ccc(-c2nc3ccccc3s2)cc1)c1ccccc1[N+](=O)[O-] | Moesin, with CD44 (Homo sapiens, UniProt P26038) | MSN-CD44 interaction, inhibitor, TR-FRET | – | together with: CD44 | – | IC50 | > 100 µM
O=C(O)CCC(C(=O)/C=C/c1ccc(O)c(OC(F)(F)F)c1)C(=O)/C=C/c1ccc(O)c(OC(F)(F)F)c1 | Amyloid-beta precursor protein, Aβ aggregates (APP, Homo sapiens, UniProt P05067) | binding, thioflavin T competition | – | – | – | IC50 | 0.82 µM
CC(C)[C@H](NC(=O)c1cc(C(=O)O)cc([C@H]2CCN[C@@H]2C(=O)O)c1)C(=O)O | kainate receptor (rat) | binding, radioligand binding | rat cortical synaptosomes | together with: [3H]kainate | – | IC50 | 27 µM
O=C(NO)c1ccccc1F | HDAC6 (Homo sapiens, UniProt Q9UBN7) | enzyme activity, inhibitor, electrophoretic mobility shift | – | together with: FAM-RHKK(Ac)-NH2 1 µM | – | IC50 | 3.02 µM
COCCCn1nc(-c2ccc(CC(=O)Nc3cc(C(C)(C)C)on3)cc2)c2c(N)ncnc21 | NTRK1 (Homo sapiens, UniProt P04629) | inhibitor | – | – | – | IC50 | 0.198 ± 0.067 µM
COC(=O)[C@@]1(C)C=C(C(=O)Nc2cccc(C(=O)NC34CC(Nc5nccc(-c6cccnc6)n5)(C3)C4)c2)C(=O)CC1 | MAPK8 (Homo sapiens, UniProt P45983) | kinase activity, inhibitor | – | 44.44 µM, together with: 10 mM GSH | – | remaining activity | 0.0213 fraction of control
Cc1n[nH]c(C)c1-c1ccc(C2(c3ccc(Cl)cc3)CCNCC2)cc1 | LATS1 (Homo sapiens, UniProt O95835) | kinase activity, inhibitor, radiometric HotSpot | – | together with: ATP 10 µM | – | IC50 | 0.52 µM
O=C1NC(=O)C(Cc2ccc(OCCNc3ccccn3)cc2)S1 (stereo not shown) | ACSL4 (Homo sapiens, UniProt O60488) | enzyme activity, inhibitor, EnzChek pyrophosphate | – | – | – | IC50 | 5.1 ± 1 µM
CCCCCN(C)C(=O)Oc1ccccc1C=C1Cc2cc(OC)c(OC)cc2C1=O | Cocaine esterase (CES2, Homo sapiens, UniProt O00748) | inhibitor | – | 33 min preincubation, together with: fluorescein diacetate | – | IC50 | 0.00544 ± 0.00057 µM
CNCCCSc1c2cc(OC)ccc2nc2ccc(OC)cc12 | DYRK2 (Homo sapiens, UniProt Q92630) | inhibitor | – | together with: Woodtide peptide | – | IC50 | 0.12 µM
COc1cc([C@@H]2c3cc4c(cc3[C@](O)(C3(O)CCOCC3)[C@H]3COC(=O)[C@H]23)OCO4)cc(OC)c1OC | Leishmania | – | mouse splenocytes | – | reference: CC50 over amastigote EC50 | selectivity index | 0.7
CC(=O)N(CC#Cc1cccc(C(N)=O)c1)C[C@H]1C[C@@H](n2ccc3c(Cl)ncnc32)[C@H](O)[C@@H]1O | PNMT (Homo sapiens, UniProt P11086) | enzyme activity, inhibitor, SAHH-coupled fluorescence | – | – | – | IC50 | > 100 µM
O=C1Nc2ccccc2C2(CCN(CCc3ccc(OCCF)cc3)CC2)O1 | CCR2 (Homo sapiens, UniProt P41597) | binding, radioligand displacement | membranes | – | – | IC50 | 3.5 µM
FC(F)(F)c1cccc(CCN2CCN(c3cc(N4CCCC4)nc(N4CCCC4)n3)CC2)c1 | Caspase-1 (CASP1, Homo sapiens, UniProt P29466) | enzyme activity, inhibitor | – | 30 min preincubation, together with: Ac-WEHD-AMC 10 µM | – | IC50 | 0.188 ± 0.027 µM
COc1cc([C@@H]2c3cc4c(cc3C=C(C=O)[C@H]2C(=O)OCCCn2cnc3c(Cl)ncnc32)OCO4)cc(OC)c1OC | Leishmania infantum | iRFP fluorescence | mouse splenocytes infected, amastigote, iRFP, ex vivo splenic explant | 48 h | – | EC50 | 56.3 ± 1.4 µM
COc1ccc(N2CCN(C(=O)CCCn3c(=S)[nH]c4ccccc4c3=O)CC2)cc1 | Estrogen receptor (ESR1, Homo sapiens, UniProt P03372) | reporter gene, antagonist | HEC-1 cells transfected with ERα | together with: estradiol 1 nM | – | IC50 | 7.4 µM
CC(C)[C@H](N)c1nc2cc(-c3cc[nH]c3)sc2c(=O)[nH]1 | CDC7 (Homo sapiens, UniProt O00311) | enzyme activity, inhibitor | – | – | – | IC50 | > 10 µM
COc1ccc(NC(=O)N[C@@H](Cc2ccc(O)cc2)C(=O)NCC2(c3ccccc3)CC2)cc1 | FPR2 (Homo sapiens, UniProt P25090) | calcium mobilization | FPR2-transfected HL-60 | desensitization pretreatment, together with: WKYMVM 5 nM | – | IC50 | 9.8 ± 2.1 µM
COc1ccc2[nH]cc(/C=C/c3cccc([N+](=O)[O-])c3)c2c1 | Amyloid-beta precursor protein, amyloid-beta peptide (APP, Homo sapiens, UniProt P05067) | Aβ42 oligomerisation, ELISA | – | – | – | IC50 | 7.5 µM
CN1CCN(Cc2ccc(NC(=O)c3cncc(C#Cc4c(N)ncc5ccc(F)cc45)c3)cc2C(F)(F)F)CC1 | Kinesin-1 heavy chain/ Tyrosine-protein kinase receptor RET (RET/KIF5B, Homo sapiens, UniProt P07949+P33176) | cell viability, inhibitor, CellTiter-Glo | Ba/F3 KIF5B-RET wild type | – | – | IC50 | 0.00425 ± 0.00025 µM
CC(=O)Nc1ccc2cnn(-c3cc(NC4CC4)n4ncc(C#N)c4n3)c2c1 | CSNK2A1 (Homo sapiens, UniProt P68400) | target engagement, NanoBRET | HEK293 | – | – | IC50 | 0.094 µM
